{"data": "Measurements collected from several papers", "note": "Each line is one published result; not all experiments were run side by side. Numbers after ± are the reported error."}
{"SMILES": "CC(C)NCC(O)c1ccc(NS(C)(=O)=O)cc1 (racemic)", "test system": "male Hartley guinea pig, anaesthetized", "setting": "intravenous infusion, 1 mg/kg, 10 min infusion", "how to read": "relative to: baseline", "measurement": "QTc change", "value": "18.1 ± 5.3%"}
{"SMILES": "C=CC(N)CCC(=O)O (stereo not drawn)", "test system": "male Sprague-Dawley rat, plasma", "setting": "oral, 10 mg/kg, formulation 9, added: low-fat infant formula 1500 mg/kg", "measurement": "fraction absorbed", "value": "68 ± 1%"}
{"SMILES": "Oc1ccc(/C=C/c2cc(O)cc(O)c2)cc1", "test system": "male Sprague-Dawley rat, plasma", "setting": "intravenous, 10 mg/kg", "measurement": "clearance", "value": "106 mL/min/kg"}
{"SMILES": "CC(=O)[C@H]1CC[C@H]2[C@@H]3CCC4=CC(=O)CC[C@]4(C)[C@H]3CC[C@]12C", "assay": "shake-flask", "test system": "soybean oil", "setting": "37 °C", "measurement": "thermodynamic solubility", "value": "30.4 ± 1.28 mg/g"}
{"SMILES": "CCc1ccccc1-c1ccc2c(c1)C1(Nc3ccccc3C(=O)N1c1ccc(C)cc1)C(=O)N2C (stereo not drawn)", "assay": "shake flask", "test system": "aqueous buffer", "setting": "pH 7.4", "measurement": "logD", "value": 4.9}
{"SMILES": "COc1ccc2nc([S@@+]([O-])Cc3ncc(C)c(OC)c3C)[nH]c2c1", "test system": "human healthy", "setting": "40 mg, vessel puncture site pain", "measurement": "adverse events", "value": "0%"}
{"SMILES": "CS(=O)(=O)n1cc2c(n1)CN([C@H]1CO[C@H](c3cc(F)ccc3F)[C@@H](N)C1)C2", "test system": "male human, urine", "setting": "oral, 12.5 mg, single dose, fasted, healthy volunteers", "measurement": "renal clearance", "value": "38.3 mL/min"}
{"SMILES": "Cc1cc(Nc2cc3ncccc3c(N[C@@H]3C[C@H]4CC[C@@H](C3)N4CCC#N)n2)n[nH]1", "test system": "dog, female, plasma", "setting": "oral, 100 mg/kg/day, week 28 day 197, 39-week repeat dose", "how to read": "mean", "measurement": "AUC(0-24 h)", "value": "3140 ng·h/mL"}
{"SMILES": "C#C[C@]1(O)CC[C@H]2[C@@H]3CCc4cc(O)ccc4[C@H]3CC[C@@]21C", "assay": "shake-flask", "test system": "Captex 355", "setting": "37 °C", "measurement": "thermodynamic solubility", "value": "44 ± 3.13 mg/g"}
{"SMILES": "O=C1N=C(N2CCOCC2)CN1c1ccc(Cl)cc1", "test system": "beagle dog, female, plasma", "setting": "oral, 30 mg/kg, tablets, fasted", "measurement": "apparent oral clearance", "value": "5.18 mL/min/kg"}
{"SMILES": "COC(=O)c1ccc2c(c1)NC(=O)/C2=C(\\Nc1ccc(N(C)C(=O)CN2CCN(C)CC2)cc1)c1ccccc1", "test system": "human moderate liver impairment, plasma", "setting": "oral, 150 mg twice daily, geometric mean", "measurement": "Cmax steady state", "value": "143 ng/mL"}
{"SMILES": "C[N+]1(CC(=O)OC2CCCCCCCCCCC2)CCCCCC1", "assay": "metabolic stability", "test system": "male CD-1 mouse, liver microsomes", "setting": "1 µM, pH 7.4", "measurement": "microsomal CLint", "value": "790 µL/min/mg"}
{"SMILES": "Cc1nc2cccc(OCC(C)(C)C(=O)NC(C)C)c2c(N)c1C(=O)O", "test system": "Sprague-Dawley rat, male, plasma", "setting": "intravenous, 1.0 mg/kg, day 1", "measurement": "AUC(0-last)", "value": "331 ± 58 ng·h/mL"}
{"SMILES": "CCOC(=O)C1=C(C)NC(C)=C(C(=O)OC)C1c1cccc(Cl)c1Cl (stereo not drawn)", "assay": "shake-flask", "test system": "soybean oil", "setting": "37 °C", "measurement": "thermodynamic solubility", "value": "9.59 ± 0.67 mg/g"}
{"SMILES": "CC[C@H](C)[C@@H]1NC(=O)[C@H](Cc2ccc(O)cc2)NC(=O)[C@@H](N)CSSC[C@@H](C(=O)N2CCC[C@H]2C(=O)N[C@@H](CC(C)C)C(=O)NCC(N)=O)NC(=O)[C@H](CC(N)=O)NC(=O)[C@H](CCC(N)=O)NC1=O", "test system": "human, urine", "setting": "intranasal, 100 IU", "measurement": "peak urinary excretion", "value": "227 pg/mg creatinine"}
{"SMILES": "Cn1c(-c2ccc(C(N)=O)cc2F)nnc1C(C)(C)Oc1c(F)cc(Cl)cc1F", "test system": "young non-Japanese healthy subjects, plasma", "setting": "oral, 0.2 mg once daily, 3 mg loading day 1, median, last dosing day", "measurement": "apparent volume of distribution Vz/F", "value": "2000 L"}
{"SMILES": "C/C=C/C=C/C=C/CC/C=C/C(=O)NCC(C)(C)O", "test system": "rat, small intestine site 4 contents", "setting": "oral, dose not given, 2 h, β-glucuronidase treated", "how to read": "relative to: ingested amount", "measurement": "recovery", "value": "0%"}
{"SMILES": "O=c1cc(-c2ccc(O)cc2)oc2c([C@@H]3O[C@H](CO)[C@@H](O)[C@H](O)[C@H]3O)c(O)cc(O)c12", "assay": "mass spectrometry", "test system": "Caco-2", "setting": "40 µM, 6 h", "measurement": "Papp A→B", "value": "28.5 ×10⁻⁶ cm/s"}
{"note": "For quick reference, copied from above:"}
{"SMILES": "CC(C)NCC(O)c1ccc(NS(C)(=O)=O)cc1 (racemic)", "test system": "male Hartley guinea pig, anaesthetized", "setting": "intravenous infusion, 1 mg/kg, 10 min infusion", "how to read": "relative to: baseline", "measurement": "QTc change", "value": "18.1 ± 5.3%"}
{"SMILES": "C=CC(N)CCC(=O)O (stereo not drawn)", "test system": "male Sprague-Dawley rat, plasma", "setting": "oral, 10 mg/kg, formulation 9, added: low-fat infant formula 1500 mg/kg", "measurement": "fraction absorbed", "value": "68 ± 1%"}
